Measured values collected from several papers.
Every numbered part comes from another study and shows a few of its results, in no order. “And” joins repeats or separate records; there may be more than shown.

Set 1 — technique: RNA Bind-n-Seq; form: RNA; matrix: in vitro; tested at: 200 nM; setting: whole 134-nt RNA, ends assumed; together with: 150 mM LiCl; baseline: input library; direction: higher = stronger binding; library: 7-deaza-guanosine replaces G
Target: Fragile X messenger ribonucleoprotein 1, C-terminal low-complexity region (Fmr1, Mus musculus, UniProt P35922)
All sequences stand within: GGGAGUUCUACAGUCCGACGAUC … UGGAAUUCUCGGGUGUCAAGG
Strand	log2 enrichment
UGGGAGGUGGAUUUUGUUUAUUUUUUUAGCUCACUUCCAGGGGUGGGAAUUUUUUUUUAAUAUGUGUCAUGAAUAAAGUUGUUUUUGAAA	0.515
UAACUUUAGAGGAGGAUCUGAUGGAUAUGGCAGUGGACGGGGAUUUGGGGAUGGCUAUAAUGGGUAUGGAGGAGGACCUGGAGGUGGCAA	-0.214
GUCCUGUGCUACACAUCGUAUGUACCGAAUCGGUUUUUUGGUUUUUUGGUUUUUUGGGAAAGUAUUAUGUUACGCCGUUCGGAUCUGCAC	-1.55
CCUCAAGUCCUGUGCUACACAUCGUAUGUACCGAAUCGGGGAGGAGGGGAGGAAAGUAUUAUGUUACGCCGUUCGGAUCUGCACUUCCAG	-0.268
AAGUCCUGUGCUACACAUCGUAUGUACCGAAUCGGGGAGGGGUGGGGUUUUUGGGGAAAGUAUUAUGUUACGCCGUUCGGAUCUGCACUU	-0.595
UAACUUUAGAGGAGGAUCUGAUGGAUAUGGCAGUGGACGUGGAUUUAGGGAUGGCUAUAAUGGGUAUGGAGGAGGACCUGGAGGUGGCAA	-0.0757
GUCCUGUGCUACACAUCGUAUGUACCGAAUCGGGGAAAAAAAGGGGUGGGGUUUGGGGAAAGUAUUAUGUUACGCCGUUCGGAUCUGCAC	-0.405
ACCACGCAGGUGGGCAUCUUUGGGAAGUGGGGCAAGGGGGGGAUAGGGAGGGGGGUAACACUUUGGGAACAGGUGGUCCCAGGUCGUUUC	1.55

Set 2 — technique: competition protein-binding microarray; form: double-stranded DNA, one strand shown; matrix: in vitro; tested at: 2 µM; together with: Pho4 competitor, 0.05 µM; direction: higher = stronger binding; all sequences stand within: … GTCTTGATTCGCTTGACGCTGCTG
Target: Centromere-binding protein 1, full length, His-tagged (CBF1, Saccharomyces cerevisiae, UniProt P17106, residues 1-351)
UniProt P17106, sequence (whole entry, looked up): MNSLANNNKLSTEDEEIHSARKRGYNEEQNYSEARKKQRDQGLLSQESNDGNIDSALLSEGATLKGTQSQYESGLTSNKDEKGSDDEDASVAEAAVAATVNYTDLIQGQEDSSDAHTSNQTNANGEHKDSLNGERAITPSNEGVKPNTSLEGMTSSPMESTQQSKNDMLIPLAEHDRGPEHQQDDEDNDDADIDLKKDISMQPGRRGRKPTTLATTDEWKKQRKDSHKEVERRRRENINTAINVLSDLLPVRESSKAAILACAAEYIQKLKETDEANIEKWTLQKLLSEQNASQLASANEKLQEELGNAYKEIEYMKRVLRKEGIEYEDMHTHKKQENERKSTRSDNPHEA
Setting: whole 60-bp probe, lowest competitor level
Strand	fluorescence intensity [a.u.]
CTTCTGTAAATTTGCTAGGTGGGTGGACGCGCCCCG	86.8
CTGTTCTGTTCATCGCATGTGCATATATATATATAG	174
AAAGCGGTAATTTGAAAGGTGGGTGCAGATATCTAT	63.9
TGCGCAACAACTTGAAGGGTGGGTGTATGTCTAGAA	70.1
CGGGGTTAAGTTTGTCTCGTGGGTGGCTTGCAGCAG	94.7
ACCCTGCCCTCATATCACCTGCGTTTCCGTTAAACT	93.9
CAAGTTTGTTTGCTTTTCGTGCAAAATATTAAATAG	92.6
CGGGGTTAAGTTTGATTGGTGGGTGGCTTGCAGCAG	75
TGCATTCAAAACATCAACGTGGCCGTCCCATAAGGC	107

Set 3 — technique: protein binding microarray; form: double-stranded DNA, one strand shown; matrix: in vitro; tested at: not given; baseline: not given; direction: higher = stronger binding
Target: Histone acetyltransferase KAT6A, winged helix 1, GST fusion (KAT6A, Homo sapiens, UniProt Q92794, residues 1-85)
Setting: 8-mer, flanks averaged, mean of 2 arrays, mostly near background
Construct (chain): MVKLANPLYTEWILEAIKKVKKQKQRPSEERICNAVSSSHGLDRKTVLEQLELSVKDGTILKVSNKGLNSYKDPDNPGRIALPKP
Strand	E-score
GGTCCGAA	0.125
ATTGCTTC	-0.0498
CCTTTCGA	-0.0876
CATTTTCA	-0.161
GGAGCTAC	-0.0259
ATAAATAG	-0.0162
CATAGATA	-0.0987
GGATATAC	0.0491
GGCGCCAA	0.222
AGAGGGAC	-0.133
AATCAAAT	-0.119

Mixed results
Molecule	tested on	test	system	setting	scale	endpoint	value
PhoQ, residues 284 288 289 292 302 303 SNGLAW	PhoP, residues 12 14 15 18 19 LWHSL (Escherichia coli, UniProt P23836)	Sort-seq, measured: YFP reporter	E. coli	PhoQ-PhoP variant library, together with: 10 µM Mg2+	baseline: high Mg2+ state, higher = stronger signaling	fold induction	15.5 and 7.08
COPB1 (Homo sapiens, UniProt P53618)	COPA (Homo sapiens, UniProt P53621)	cross-linking MS	–	hits only	–	interaction screen	cross-linked

For quick reference, copied from above (set 1):
Strand	log2 enrichment
UAACUUUAGAGGAGGAUCUGAUGGAUAUGGCAGUGGACGGGGAUUUGGGGAUGGCUAUAAUGGGUAUGGAGGAGGACCUGGAGGUGGCAA	-0.214
ACCACGCAGGUGGGCAUCUUUGGGAAGUGGGGCAAGGGGGGGAUAGGGAGGGGGGUAACACUUUGGGAACAGGUGGUCCCAGGUCGUUUC	1.55
